Results gathered from unrelated publications.
Each line is one published result; not all experiments were run side by side. “And” joins repeats or separate records; there may be more than shown.
Sequence of UniProt P07948 (whole entry, looked up): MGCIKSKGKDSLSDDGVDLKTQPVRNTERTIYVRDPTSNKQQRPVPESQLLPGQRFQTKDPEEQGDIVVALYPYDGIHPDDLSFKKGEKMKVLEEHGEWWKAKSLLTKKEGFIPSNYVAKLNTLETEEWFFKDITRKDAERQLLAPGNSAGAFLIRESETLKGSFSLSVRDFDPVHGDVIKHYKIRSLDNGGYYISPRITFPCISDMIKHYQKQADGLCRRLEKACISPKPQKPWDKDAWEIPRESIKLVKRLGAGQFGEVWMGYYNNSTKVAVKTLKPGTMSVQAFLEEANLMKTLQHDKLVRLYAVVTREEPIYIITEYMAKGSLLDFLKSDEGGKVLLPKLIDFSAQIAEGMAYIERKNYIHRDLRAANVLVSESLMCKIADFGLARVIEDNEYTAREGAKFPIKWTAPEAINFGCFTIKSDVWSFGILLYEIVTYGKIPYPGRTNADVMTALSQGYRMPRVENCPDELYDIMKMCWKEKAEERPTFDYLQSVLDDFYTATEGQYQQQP
Sequence of UniProt O94806 (whole entry, looked up): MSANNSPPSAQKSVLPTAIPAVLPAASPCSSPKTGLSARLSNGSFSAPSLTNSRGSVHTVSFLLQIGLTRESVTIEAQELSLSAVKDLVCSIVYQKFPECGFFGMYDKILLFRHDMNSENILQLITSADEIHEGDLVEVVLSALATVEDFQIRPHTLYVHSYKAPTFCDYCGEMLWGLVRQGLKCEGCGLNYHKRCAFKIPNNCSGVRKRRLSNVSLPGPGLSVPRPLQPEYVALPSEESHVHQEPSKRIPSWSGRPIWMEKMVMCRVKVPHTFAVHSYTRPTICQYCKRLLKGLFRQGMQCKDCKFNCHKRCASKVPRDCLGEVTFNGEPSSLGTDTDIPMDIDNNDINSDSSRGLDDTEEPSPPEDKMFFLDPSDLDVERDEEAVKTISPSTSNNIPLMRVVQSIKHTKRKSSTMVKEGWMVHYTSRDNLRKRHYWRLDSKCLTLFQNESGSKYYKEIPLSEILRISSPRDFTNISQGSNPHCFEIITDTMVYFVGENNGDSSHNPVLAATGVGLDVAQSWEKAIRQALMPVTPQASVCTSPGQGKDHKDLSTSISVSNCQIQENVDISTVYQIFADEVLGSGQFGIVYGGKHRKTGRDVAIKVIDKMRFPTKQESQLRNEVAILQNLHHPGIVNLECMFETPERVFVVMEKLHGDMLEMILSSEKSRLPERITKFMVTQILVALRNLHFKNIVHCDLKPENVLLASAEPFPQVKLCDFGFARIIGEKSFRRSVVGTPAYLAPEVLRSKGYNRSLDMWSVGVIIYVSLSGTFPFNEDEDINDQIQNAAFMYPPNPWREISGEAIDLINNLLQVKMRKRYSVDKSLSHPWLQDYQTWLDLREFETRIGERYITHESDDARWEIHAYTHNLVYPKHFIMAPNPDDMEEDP
Sequence of UniProt P47211 (whole entry, looked up): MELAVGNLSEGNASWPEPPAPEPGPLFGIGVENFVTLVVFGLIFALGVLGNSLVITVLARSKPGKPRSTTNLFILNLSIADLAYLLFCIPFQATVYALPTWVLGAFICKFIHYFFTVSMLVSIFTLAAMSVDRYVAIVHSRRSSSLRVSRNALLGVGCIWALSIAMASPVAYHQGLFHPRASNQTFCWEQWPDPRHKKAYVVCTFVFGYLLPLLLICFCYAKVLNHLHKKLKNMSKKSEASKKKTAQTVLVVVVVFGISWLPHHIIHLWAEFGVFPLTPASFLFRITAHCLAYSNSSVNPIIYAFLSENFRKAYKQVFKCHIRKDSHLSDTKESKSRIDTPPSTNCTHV

`O=C(Nc1cnccc1Cl)N1CCN(Cc2ccc3c(c2)OC(F)(F)O3)CC1` gave an inhibition of 2% and -4% (atrial natriuretic factor receptor; concentration not given).
The inhibition of `COc1cc(Nc2ncc(F)c(Nc3ccc4c(n3)NC(=O)C(C)(C)O4)n2)cc(OC)c1OC` is reported as 58% (CDKL2 (Homo sapiens, UniProt Q92772); KINOMEscan; 10 µM).
The inhibition of `CC(=O)NC[C@H]1[C@H](O)[C@H](O)[C@@H]2[C@H](O)C[C@@H](CO)N21` is reported as 6.97% (Spodoptera litura β-N-acetylglucosaminidase; crude enzyme; 0.000784 µM, run 1, with: p-nitrophenyl GlcNAc).
The inhibition of `CN(C(=O)n1cnc(-c2ccc[n+]([O-])c2)c1)C1CCCCC1` is reported as 0% (HCRTR1 (Homo sapiens, UniProt O43613); binding; 10 µM).
For `CN1CCN(c2cc(-c3ccncc3)c(-c3ccc4ccccc4c3)nn2)CC1`, the inhibition was 6.3% (GALR1 (Homo sapiens, UniProt P47211); antagonist, FLIPR; 10 µM).
With `c1ccc(C(NCCNC(c2ccccc2)c2ccccc2)c2ccccc2)cc1` the inhibition was -9% (Tyrosine-protein kinase Lyn, isoform B (LYN, Homo sapiens, UniProt P07948); enzyme activity; 10 µM, Eurofins selectivity panel).
For `CC(C)C[C@H]1C(=O)N2CCC[C@H]2[C@]2(O)O[C@](NC(=O)[C@@H]3C=C4c5cccc6[nH]c(Br)c(c56)C[C@H]4N(C)C3)(C(C)C)C(=O)N12.CS(=O)(=O)O`, the inhibition was 2% (Genome polyprotein, NS3 helicase domain (Hepatitis C virus genotype 1b, UniProt Q9WMX2); DNA binding, inhibitor; hepatitis C virus; 100 µM, with: Cy5-dT15 DNA).
With `COc1ccc(N2C(=O)N(c3c(C)cccc3Cl)Cc3cnc(Nc4ccc(C5CCN(C)CC5)cc4OC)nc32)nc1` the inhibition was 28% (PRKD3 (Homo sapiens, UniProt O94806); kinase activity; 0.5 µM).

Excerpt of the above:
The inhibition of `CC(=O)NC[C@H]1[C@H](O)[C@H](O)[C@@H]2[C@H](O)C[C@@H](CO)N21` is reported as 6.97% (Spodoptera litura β-N-acetylglucosaminidase; crude enzyme; 0.000784 µM, run 1, with: p-nitrophenyl GlcNAc).
